Measured values gathered from unrelated publications.
A part holds a random share of what one study measured.

Sample 1 — method: aptamer microarray, sandwich; molecule type: DNA with 2'F-ANA; medium: in vitro; concentration: 200 nM; with: Cy3 exosite-II aptamer, 400 nM; direction: higher = stronger binding
Target: Prothrombin, mature alpha-thrombin (F2, Homo sapiens, UniProt P00734)
Setting: whole 15-mer aptamer, many near background
Under “mean fluorescence intensity”, `GGTTGGTGTGGTTGG (2'F-ANA at 1 3 5 8 9 13)` is recorded as 52.6 a.u.
For `GGTTGGTGTGGTTGG (2'F-ANA at 4 6 10 12)`, “mean fluorescence intensity” read 111 a.u.
`GGTTGGTGTGGTTGG (2'F-ANA at 1 2 3 5 9 14 15)`: “mean fluorescence intensity” 48.2 a.u.
Under “mean fluorescence intensity”, `GGTTGGTGTGGTTGG (2'F-ANA at 3 5 6 7 9 12 15)` is recorded as 221 a.u.

Sample 2 — method: protein binding microarray; molecule type: double-stranded DNA, one strand shown; medium: in vitro; concentration: not given; reference: not given; direction: higher = stronger binding
Target: Histone acetyltransferase KAT6A, both winged helices, GST fusion (KAT6A, Homo sapiens, UniProt Q92794, residues 1-181)
Setting: 8-mer, flanks averaged, mean of 2 arrays, mostly near background
Target sequence (chain): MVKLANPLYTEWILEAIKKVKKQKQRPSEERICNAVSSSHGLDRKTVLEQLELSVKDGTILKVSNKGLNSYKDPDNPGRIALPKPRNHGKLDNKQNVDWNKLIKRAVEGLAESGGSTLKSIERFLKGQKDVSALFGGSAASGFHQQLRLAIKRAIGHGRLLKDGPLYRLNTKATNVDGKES
`ACCCACCA` gave an E-score of -0.246.
`ACAGCATA` has an E-score of -0.00709.
For `AAAGGGCG`, the E-score was 0.0541.
For `CGTGAAAA`, the E-score was 0.155.
`AACTTGGC` has an E-score of -0.209.
The E-score of `CCTGATAA` is reported as -0.122.

Single results of other studies
FKH2 DNA-binding domain: Fork head protein homolog 2, DNA-binding domain (FKH2, Saccharomyces cerevisiae, UniProt P41813, residues 280-520)
Sequence of UniProt P41813 (280-520, looked up): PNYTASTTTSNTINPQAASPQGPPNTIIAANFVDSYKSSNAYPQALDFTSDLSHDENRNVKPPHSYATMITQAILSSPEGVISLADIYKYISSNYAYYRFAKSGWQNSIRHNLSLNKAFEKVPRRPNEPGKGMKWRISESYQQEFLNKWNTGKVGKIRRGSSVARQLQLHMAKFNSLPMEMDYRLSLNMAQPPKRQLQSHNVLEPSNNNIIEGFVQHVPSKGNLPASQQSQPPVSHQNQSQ
`CAAAATA`: “relative binding free energy” 1.58 ddG/RT (FKH2 DNA-binding domain; SELEX-seq; double-stranded DNA, one strand shown, in vitro; not given, 7-bp core, flanks averaged; reference: best-binding core, lower = stronger binding).
With `PhoQ, residues 284 288 289 292 302 303 SIHMAM` the fold induction was 5.53 (PhoP, residues 12 14 15 18 19 AQCLL (Escherichia coli, UniProt P23836); Sort-seq, item: YFP reporter; E. coli; PhoQ-PhoP variant library, with: 10 µM Mg2+; reference: high Mg2+ state, higher = stronger signaling).
For `GTACACA`, “relative binding free energy” read 1.4 ddG/RT (FKH2 DNA-binding domain; SELEX-seq; double-stranded DNA, one strand shown, in vitro; not given, 7-bp core, flanks averaged; reference: best-binding core, lower = stronger binding).

Excerpt of the above (sample 1):
For `GGTTGGTGTGGTTGG (2'F-ANA at 4 6 10 12)`, “mean fluorescence intensity” read 111 a.u.
`GGTTGGTGTGGTTGG (2'F-ANA at 1 2 3 5 9 14 15)`: “mean fluorescence intensity” 48.2 a.u.
